Measurements gathered from unrelated publications.
± gives the spread as reported.

| Structure (SMILES) | assay | test system | conditions | scale | endpoint | value |
| --- | --- | --- | --- | --- | --- | --- |
| CCCCCCCCCCCCC(=O)O.O=C1CCCC2C3CCCN4CCCC(CN12)C34 (stereo not drawn) | shake-flask | ultrapure water | pH 7.0, 25 °C |  | log octanol-water partition coefficient | 0.49 |
| CC(COC(=O)c1ccccc1)OC(=O)C(N)Cc1ccccc1 (mixture of isomers) |  | isotonic buffer | pH 6.0, 37 °C |  | half-life | > 1800 min |
| C[C@H](NC(=O)[C@H](CC(=O)O)NC(=O)[C@H](C)NC(=O)[C@H](CCCNC(=N)N)NC(=O)[C@H](C)NC(=O)[C@H](CC(=O)O)NC(=O)[C@H](C)NC(=O)[C@H](CCCNC(=N)N)NC(=O)[C@H](Cc1ccccc1)NC(=O)[C@H](Cc1ccccc1)NC(=O)OCC1c2ccccc2-c2ccccc21)C(=O)NCC(=O)N[C@@H](CCCNC(=N)N)C(=O)N[C@@H](CCCCN)C(=O)N[C@@H](CCCCN)C(=O)N[C@@H](CCCNC(=N)N)C(=O)N[C@@H](CCCNC(=N)N)C(=O)N[C@@H](CCC(N)=O)C(=O)N[C@@H](CCCNC(=N)N)C(=O)N[C@@H](CCCNC(=N)N)C(=O)N[C@@H](CCCNC(=N)N)C(=O)N1CCC[C@H]1C(=O)N[C@@H](CCC(N)=O)C(N)=O | AFM | water on mica | 400 µM |  | nanostructure length | 150 ± 111 nm |
| COc1ccc(C)cc1NC(=O)OC1CC2CCCC(C1)N2Cc1ccc(CC[18F])cc1 (stereo not drawn) |  | BALB/c mice, EMT6 tumour | 1 h | baseline: tumour over fat | tumour to tissue ratio | 0.41 |
| COC(=O)C[C@](O)(CCCC(C)(C)OC(C)=O)C(=O)O[C@@H]1C(OC)=C[C@]23CCCN2CCc2cc4c(cc2[C@H]13)OCO4 |  | CD1 mouse, kidney | subcutaneous, 1 mg/kg, 24 h, below quantification limit 1.00 ng/mL |  | tissue concentration | not detected |
| CC(C)[C@H](NC(=O)CNC(=O)[C@H](CCC(N)=O)NC(=O)[C@H](C)N)C(=O)O |  | healthy male volunteers | intravenous, 15 mg/kg/h, 2 h, added: LPS 2 ng/kg |  | subjects with mild AE | 25% |
| CCN(Cc1ccccc1)C(=O)CCc1nc(CN2CCN(C(=O)Cc3ccc(OC)c(OC)c3)CC2)no1 | LC-MS | rat, dorsal root ganglion | intravenous, 1 mg/kg, 1.0 h |  | concentration | 84 ± 0.6 ng/g |
| CC(=CCC(O)C(C)=Cc1csc(C)n1)CC=CC(C)C(O)C(C)C(=O)C(C)(C)C(O)CC(=O)O (stereo not drawn) |  | human, plasma | intravenous infusion, 11.3 mg/m2 KOS-1584, 3 h infusion, cycle 1 |  | Cmax | 5.85 ± 1.72 ng/mL |
| CC(C)[C@]12O[C@H]1[C@@H]1O[C@]13[C@]1(O[C@H]1C[C@H]1c4c(C(=O)c5ccccc5)oc(OC(=O)c5ccccc5)c4CC[C@@]13C)[C@@H]2O |  | Sprague Dawley rat, female | intravenous, single injection |  | maximum tolerated dose | 3 mg/kg |
| [2H]C([2H])([2H])C([2H])([2H])C([2H])([2H])OC(C(=O)OC1CCNCC1)(c1ccccc1)c1ccccc1 |  | healthy Japanese male subjects, plasma | oral, 15 mg once daily, day 1, fed, mean |  | Cmax | 29.7 ng/mL |
| O=P1(NCCCl)NCCCO1 (stereo not drawn) |  | rat, plasma | intravenous, 10 mg/kg CP, added: ketoconazole 0 mg/kg |  | Tmax | 1.25 ± 0.418 h |
| O=C(O)CC[C@H](NC(=O)O[C@@H](CCCCNC(=O)c1ccc([18F])cc1)C(=O)O)C(=O)O |  | mouse, PC-3 PIP/flu xenografts, spleen | 30 min |  | tissue uptake | 3.76 ± 6.48 %ID/g |
| CC(C)[C@H](NC(=O)CNC(=O)[C@H](CCC(N)=O)NC(=O)[C@H](C)N)C(=O)O |  | human | 3 mg/kg single dose |  | subjects given concomitant medication | 0% |
| CN(C)C(CNC(=O)Nc1cc(C(F)(F)F)ccc1N1CCOCC1)c1ccncc1 (stereo not drawn) |  | mouse, serum | intraperitoneal, 120 mg/kg single dose |  | serum chloride | 110 mmol/L |
| CN[C@](C)(C[18F])C(=O)O |  | SCID mouse U87 xenograft, brain | 30 min, post injection |  | tissue uptake | 0.4 ± 0.03 %ID/g |
| CC[C@H](C)[C@H](NC(=O)[C@H](Cc1ccccc1)NC(=O)[C@H](CC(=O)O)NC(=O)[C@H](CCCN)NC(=O)[C@H](Cc1ccccc1)NC(=O)[C@H](Cc1ccccc1)NC(=O)[C@H](CCCCN)NC(=O)[C@H](CCN)NC(=O)[C@H](CC(C)C)NC(=O)[C@H](CCCNC(=N)N)NC(=O)[C@H](CCSC)NC(=O)[C@H](C)N)C(=O)N[C@@H](CC(C)C)C(=O)N[C@@H](CCC(N)=O)C(=O)N[C@@H](CCCNC(=N)N)C(=O)N[C@@H](CCCCN)C(=O)N[C@@H](CCCCN)C(=O)O | circular dichroism | 20% TFE in PBS | 200 µM, pH 7.4, 25 °C |  | helicity | 15.2% |
| CC[C@H](C)[C@@H]1NC(=O)[C@H](CCCCN)NC(=O)[C@H](CCCCN)NC(=O)[C@H](Cc2ccc(O)cc2)NC(=O)[C@H](CC(C)C)NC(=O)[C@@H]2CCCN2C(=O)[C@H](C)NC(=O)CNC(=O)CNC(=O)[C@H](CO)NC(=O)CNC(=O)CNC(=O)[C@H](CO)NC(=O)[C@H](CCCCN)NC(=O)[C@H](CC(C)C)NC(=O)[C@H](CC(C)C)NC(=O)[C@H](CCCCN)NC(=O)[C@H](CCCCN)NC(=O)[C@H]([C@@H](C)CC)NC(=O)[C@H]([C@@H](C)CC)NC(=O)[C@H](CCCCN)NC(=O)[C@H](CCCCN)NC(=O)[C@H](Cc2ccc(O)cc2)NC(=O)[C@H](CC(C)C)NC(=O)[C@@H]2CCCN2C(=O)[C@H](C)NC(=O)CNC(=O)CNC(=O)[C@H](CO)NC(=O)CNC(=O)CNC(=O)[C@H](CO)NC(=O)[C@H](CCC(=O)O)NC(=O)[C@H](CC(C)C)NC(=O)[C@H](CC(C)C)NC(=O)[C@H](CCCCN)NC(=O)[C@H](CCCCN)NC(=O)[C@H]([C@@H](C)CC)NC1=O |  | 25% human serum | 50 µM, 24 h | baseline: 0 h control | remaining intact peptide | 12.2 ± 1% |
| CC[C@H](C)C(=O)N1CCC(NC(=O)Nc2ccc(OC(F)(F)F)c(F)c2)CC1 |  | healthy volunteers | oral, 24 mg single dose, 14 (unit not given) |  | subjects with dyspnoea TEAE | 0% |
| NCCCC[C@H](NC(=O)[C@H](Cc1ccccc1)NC(=O)[C@H](CCCCN)NC(=O)[C@H](Cc1ccccc1)NC(=O)[C@H](CCC(=O)O)NC(=O)[C@H](Cc1ccccc1)NC(=O)[C@H](CCC(=O)O)NC(=O)[C@@H](N)Cc1ccccc1)C(=O)O | RP-HPLC | cell-free hydrogel in medium | day 6, 10% FBS | baseline: day 0 | intact peptide remaining | 12.6 ± 0.2% |
| [3H]c1sc(C)nc1C=C(C)C1CC2C(CCCC(C)C(O)C(C)C(=O)C(C)(C)C(O)CC(=O)O1)N2CCO (stereo not drawn) | whole-body autoradiography | CD2F1 mice, intestine contents | intravenous, 2.2 nmol/kg, 2 h |  | radioactivity in tissue | 49.9 ± 29 µg-eq/g |
| CC(C)C[C@H](NC(=O)[C@H](CCCCN)NC(=O)[C@H](CCC(=O)O)NC(=O)[C@H](C)NC(=O)[C@@H](NC(=O)[C@H](CCCCN)NC(=O)[C@H](CC(=O)O)NC(=O)[C@H](Cc1ccc(O)cc1)NC(=O)[C@H](Cc1ccccc1)NC(=O)[C@H](C)NC(=O)[C@H](CCCCN)NC(=O)[C@H](CC(C)C)NC(=O)[C@H](Cc1c[nH]c2ccccc12)NC(=O)[C@@H](N)CC(=O)O)C(C)C)C(=O)N[C@@H](CCCCN)C(=O)N[C@@H](CCC(=O)O)C(=O)N[C@@H](C)C(=O)N[C@@H](Cc1ccccc1)C(=O)N1CCC[C@H]1C(=O)N[C@@H](CC(=O)O)C(=O)N[C@@H](Cc1c[nH]c2ccccc12)C(=O)N[C@@H](C)C(=O)N[C@@H](CCCCN)C(=O)N[C@@H](C)C(=O)N[C@@H](C)C(=O)N[C@@H](Cc1ccc(O)cc1)C(=O)N[C@@H](CC(=O)O)C(=O)N[C@@H](CCCCN)C(=O)N[C@@H](C)C(=O)N[C@@H](C)C(=O)N[C@@H](CCC(=O)O)C(=O)N[C@@H](CCCCN)C(=O)N[C@@H](C)C(=O)N[C@@H](CCCCN)C(=O)N[C@@H](CCC(=O)O)C(=O)N[C@@H](C)C(=O)N[C@@H](C)C(=O)O |  | cynomolgus monkey male, plasma | intravenous infusion, 8 mg/kg, day 1, 30 min infusion |  | half-life | 228 min |

Repeated from above:
| Structure (SMILES) | assay | test system | conditions | scale | endpoint | value |
| --- | --- | --- | --- | --- | --- | --- |
| CN(C)C(CNC(=O)Nc1cc(C(F)(F)F)ccc1N1CCOCC1)c1ccncc1 (stereo not drawn) |  | mouse, serum | intraperitoneal, 120 mg/kg single dose |  | serum chloride | 110 mmol/L |
| CN[C@](C)(C[18F])C(=O)O |  | SCID mouse U87 xenograft, brain | 30 min, post injection |  | tissue uptake | 0.4 ± 0.03 %ID/g |
| CC[C@H](C)[C@H](NC(=O)[C@H](Cc1ccccc1)NC(=O)[C@H](CC(=O)O)NC(=O)[C@H](CCCN)NC(=O)[C@H](Cc1ccccc1)NC(=O)[C@H](Cc1ccccc1)NC(=O)[C@H](CCCCN)NC(=O)[C@H](CCN)NC(=O)[C@H](CC(C)C)NC(=O)[C@H](CCCNC(=N)N)NC(=O)[C@H](CCSC)NC(=O)[C@H](C)N)C(=O)N[C@@H](CC(C)C)C(=O)N[C@@H](CCC(N)=O)C(=O)N[C@@H](CCCNC(=N)N)C(=O)N[C@@H](CCCCN)C(=O)N[C@@H](CCCCN)C(=O)O | circular dichroism | 20% TFE in PBS | 200 µM, pH 7.4, 25 °C |  | helicity | 15.2% |
| CC[C@H](C)[C@@H]1NC(=O)[C@H](CCCCN)NC(=O)[C@H](CCCCN)NC(=O)[C@H](Cc2ccc(O)cc2)NC(=O)[C@H](CC(C)C)NC(=O)[C@@H]2CCCN2C(=O)[C@H](C)NC(=O)CNC(=O)CNC(=O)[C@H](CO)NC(=O)CNC(=O)CNC(=O)[C@H](CO)NC(=O)[C@H](CCCCN)NC(=O)[C@H](CC(C)C)NC(=O)[C@H](CC(C)C)NC(=O)[C@H](CCCCN)NC(=O)[C@H](CCCCN)NC(=O)[C@H]([C@@H](C)CC)NC(=O)[C@H]([C@@H](C)CC)NC(=O)[C@H](CCCCN)NC(=O)[C@H](CCCCN)NC(=O)[C@H](Cc2ccc(O)cc2)NC(=O)[C@H](CC(C)C)NC(=O)[C@@H]2CCCN2C(=O)[C@H](C)NC(=O)CNC(=O)CNC(=O)[C@H](CO)NC(=O)CNC(=O)CNC(=O)[C@H](CO)NC(=O)[C@H](CCC(=O)O)NC(=O)[C@H](CC(C)C)NC(=O)[C@H](CC(C)C)NC(=O)[C@H](CCCCN)NC(=O)[C@H](CCCCN)NC(=O)[C@H]([C@@H](C)CC)NC1=O |  | 25% human serum | 50 µM, 24 h | baseline: 0 h control | remaining intact peptide | 12.2 ± 1% |
